Published values gathered from unrelated publications.
Compare with care: the assays were run in different laboratories.

SMILES = C=CC(=O)NC1CCN(c2ncc3ncnc(Nc4ccc(Oc5ccc6c(c5)ncn6C)c(C)c4)c3n2)CC1; test system = healthy male humans; conditions = oral, added: carbamazepine; how to read = baseline: with over without carbamazepine; Cmax ratio = 56.4%
SMILES = O=C(c1nc2n(n1)[C@H](c1ccccc1)C[C@@H]2F)C1CC1; test system = human; conditions = oral, 75 mg; how to read = baseline: high-fat meal over fasted; Cmax ratio = 1.21
SMILES = CCCCC1=NC2(CCCC2)C(=O)N1Cc1ccc(-c2ccccc2S(=O)(=O)Nc2noc(C)c2C)c(COCC)c1; test system = healthy humans, plasma; conditions = oral, 800 mg; how to read = baseline: fed over fasted; Cmax ratio = 2.12
SMILES = COc1cc2nccc(Oc3ccc(NC(=O)c4cc5c(n(-c6ccccc6)c4=O)CCCC5=O)nc3)c2cc1OC; test = food effect; test system = human; conditions = oral, 10 mg; how to read = baseline: day 57 over day 28; Cmax ratio = 1.13
SMILES = C=CC(=O)NC1CCN(c2ncc3ncnc(Nc4ccc(Oc5ccc6c(c5)ncn6C)c(C)c4)c3n2)CC1; test system = human, male, plasma; conditions = oral, 30 mg, adjusted geometric means; how to read = baseline: fed over fasted; Cmax ratio = 53.5%
SMILES = COc1ccc2nc([S@@+]([O-])Cc3ncc(CO)c(OC)c3C)[nH]c2c1; test system = human; conditions = rifampicin induction session; how to read = baseline: (R)-OH-omeprazole over compound; Cmax ratio = 8.2 fold
SMILES = N#CCNC(=O)c1ccc(-c2ccnc(Nc3ccc(N4CCOCC4)cc3)n2)cc1; test system = healthy human volunteers, plasma; conditions = oral, added: single-dose rifampin; how to read = baseline: compound alone; Cmax ratio = 140%
SMILES = N[C@]1(C(=O)O)[C@H]2[C@@H](C[C@@H]1F)[C@@H]2C(=O)O; test system = human, both sexes, plasma; conditions = oral, 20 mg, single dose; how to read = baseline: fed over fasted; Cmax ratio = 0.677
SMILES = CC(=O)N[C@H]1CC[C@H](NC(=O)CN2CCN(c3nncc(-c4ccc(C)cc4)n3)CC2)CC1; test system = healthy human, plasma; conditions = oral, 100 mg single dose; how to read = baseline: female over male; Cmax ratio = 1.3
SMILES = C[C@H](Oc1ccc(Br)cc1-c1ccon1)C(=O)O; test system = human, plasma; conditions = 800 mg single dose; how to read = baseline: female over male; Cmax ratio = 1.3
SMILES = CC(C)[C@@H]1CC[C@@H](C)C[C@H]1OC(=O)O[C@@H](C)OC(=O)[C@H]1[C@@H]2C[C@H](F)[C@@](N)(C(=O)O)[C@@H]21; test system = human, plasma; conditions = oral, 20 mg, single dose; how to read = baseline: fed over fasted; Cmax ratio = 0.726
SMILES = CCNCc1cc(Nc2ccnc3cc(Cl)ccc23)ccc1O; test system = humans, both sexes, plasma; conditions = oral, outlier included; how to read = baseline: fixed over non-fixed combination; Cmax ratio = 0.85

A few entries again:
SMILES = CC(C)[C@@H]1CC[C@@H](C)C[C@H]1OC(=O)O[C@@H](C)OC(=O)[C@H]1[C@@H]2C[C@H](F)[C@@](N)(C(=O)O)[C@@H]21; test system = human, plasma; conditions = oral, 20 mg, single dose; how to read = baseline: fed over fasted; Cmax ratio = 0.726
